Results gathered from unrelated publications.
Lines come from different studies, so protocols differ.
B1: PduA 2-94 (Salmonella enterica, UniProt P0A1C7); chain QQEALGMVETKGLTAAIEAADAMVKSANVMLVGYEKIGSGLVTVIVRGDVGAVKAATDAGAAAARNVGEVKAVHVIPRPHTDVEKILPKGISQ
B2: ARHGEF12 32-190 (Homo sapiens, UniProt Q9NZN5); sequence looked up; chain KKQKVERIASHDFDPTDSSSKKTKSSSEESRSEIYGLVQRCVIIQKDDNGFGLTVSGDNPVFVQSVKEDGAAMRAGVQTGDRIIKVNGTLVTHSNHLEVVKLIKSGSYVALTVQGRPPGSPQIPLADSEVEPSVIGHMSPIMTSPHSPGASGNMERITS
B3: PSMD10 1-226 I219D (Homo sapiens, UniProt O75832); chain MEGCVSNLMVCNLAYSGKLEELKESILADKSLATRTDQDSRTALHWACSAGHTEIVEFLLQLGVPVNDKDDAGWSPLHIAASAGRDEIVKALLGKGAQVNAVNQNGCTPLHYAASKNRHEIAVMLLEGGANPDAKDHYEATAMHRAAAKGNLKMIHILLYYKASTNIQDTEGNTPLHLACDEERVEEAKLLVSQGASIYIENKEEKTPLQVAKGGLGLDLKRMVEG
B4: SPOP 28-359 (Homo sapiens, UniProt O43791); sequence looked up; chain KVVKFSYMWTINNFSFCREEMGEVIKSSTFSSGANDKLKWCLRVNPKGLDEESKDYLSLYLLLVSCPKSEVRAKFKFSILNAKGEETKAMESQRAYRFVQGKDWGFKKFIRRDFLLDEANGLLPDDKLTLFCEVSVVQDSVNISGQNTMNMVKVPECRLADELGGLWENSRFTDCCLCVAGQEFQAHKAILAARSPVFSAMFEHEMEESKKNRVEINDVEPEVFKEMMCFIYTGKAPNLDKMADDLLAAADKYALERLKVMCEDALCSNLSVENAAEILILADLHSADQLKTQAVDFINYHASDVLETSGWKSMVVSHPHLVAEAYRSLASA
B5: GPATCH4 (Homo sapiens, UniProt Q5T3I0); sequence looked up; chain MNVTPEVKSRGMKFAEEQLLKHGWTQGKGLGRKENGITQALRVTLKQDTHGVGHDPAKEFTNHWWNELFNKTAANLVVETGQDGVQIRSLSKETTRYNHPKPNLLYQKFVKMATLTSGGEKPNKDLESCSDDDNQGSKSPKILTDEMLLQACEGRTAHKAARLGITMKAKLARLEAQEQAFLARLKGQDPGAPQLQSESKPPKKKKKKRRQKEEEEATASERNDADEKHPEHAEQNIRKSKKKKRRHQEGKVSDEREGTTKGNEKEDAAGTSGLGELNSREQTNQSLRKGKKKKRWHHEEEKMGVLEEGGKGKEAAGSVRTEEVESRAYADPCSRRKKRQQQEEEDLNLEDRGEETVLGGGTREAESRACSDGRSRKSKKKRQQHQEEEDILDVRDEKDGGAREAESRAHTGSSSRGKRKRQQHPKKERAGVSTVQKAKKKQKKRD
B6: ELM1 S605D/S604D/S519D/T463D/S424D/S422D/S324D (Saccharomyces cerevisiae, UniProt P32801); sequence looked up; chain MSPRQLIPTLIPEWAPLSQQSCIREDELDSPPITPTSQTSSFGSSFSQQKPTYSTIIGENIHTILDEIRPYVKKITVSDQDKKTINQYTLGVSAGSGQFGYVRKAYSSTLGKVVAVKIIPKKPWNAQQYSVNQVMRQIQLWKSKGKITTNMSGNEAMRLMNIEKCRWEIFAASRLRNNVHIVRLIECLDSPFSESIWIVTNWCSLGELQWKRDDDEDILPQWKKIVISNCSVSTFAKKILEDMTKGLEYLHSQGCIHRDIKPSNILLDEEEKVAKLSDFGSCIFTPQSLPFSDANFEDCFQRELNKIVGTPAFIAPELCHLGNDKRDFVTDGFKLDIWSLGVTLYCLLYNELPFFGENEFETYHKIIEVSLSSKINGNTLNDLVIKRLLEKDVTLRISIQDLVKVLSRDQPIDSRNHSQISDSDVNPVRNEGPVRRFFGRLLTKKGKKKTSGKGKDKVLVSADSKVTPSIHIDEEPDKECFSTTVLRSSPDSSDYCSSLGEEAIQVTDFLDTFCRSNEDLPNLTVNNDKQNSDMKTDRSESSSHSSLKIPTPIKAMIRLKSSPKENGNRTHINCSQDKPSSPLMDRTVGKRTVNNSGARKLAHDDNILNFKAYINSEDSDIRETVEDVKTYLNFADNGQI
B7: EIF3J/GST 103-258 (Homo sapiens); Alexa Fluor 546 label; sequence looked up; chain EEPKVLTPEEQLADKLRLKKLQEESDLELAKETFGVNNAVYGIDAMNPSSRDDFTEFGKLLKDKITQYEKSLYYASFLEVLVRDVCISLEIDDLKKITNSLTVLCSEKQKQEKQSKAKKKKKGVVPGGGLKATMKDDLADYGGYDGGYVQDYEDFM
B8: dnaC 1-245 (Escherichia coli, UniProt P0AEF0); chain MKNVGDLMQRLQKMMPAHIKPAFKTGEELLAWQKEQGAIRSAALERENRAMKMQRTFNRSGIRPLHQNCSFENYRVECEGQMNALSKARQYVEEFDGNIASFIFSGKPGTGKNHLAAAICNELLLRGKSVLIITVADIMSAMKDTFRNSGTSEEQLLNDLSNVDLLVIDEIGVQTESKYEKVIINQIVDRRSSSKRPTGMLTNSNMEEMTKLLGERVMDRMRLGNSLWVIFNWDSYRSRVTGKEY
B9: PAN1 543-850 (Saccharomyces cerevisiae, UniProt P32521); sequence looked up; chain LTGLQPQPTGFLPPSNFSATMPLTAQKTGFGNNEIYTKSNFNNNLIDNSSQDKISTEEKSLFYKIFETFDTQNKGLLDSPTAVEIFRKSGLNRADLEQIWNLCDINNTGQLNKQEFALGMHLVYGKLNGKPIPNVLPSSLIPSSTKLLDNLKNQLKTEPTTTKEKPSFGKIDALSYKNNDDDVLPNYRNRRKVYSAKNEEQSSFSSPSAKSVNHSSSTLQTDDISVDKTVEKKTAKPKYAGFSREINLKNIASLENEIKNISNPENCYDSSIPSDLTSRFDAIIAKLPNLFNEISTIDNEITNAKIQL
B10: NOTCH2 221-530 (Homo sapiens, UniProt Q04721); sequence looked up; chain LYVPCAPSPCVNGGTCRQTGDFTFECNCLPGFEGSTCERNIDDCPNHRCQNGGVCVDGVNTYNCRCPPQWTGQFCTEDVDECLLQPNACQNGGTCANRNGGYGCVCVNGWSGDDCSENIDDCAFASCTPGSTCIDRVASFSCMCPEGKAGLLCHLDDACISNPCHKGALCDTNPLNGQYICTCPQGYKGADCTEDVDECAMANSNPCEHAGKCVNTDGAFHCECLKGYAGPRCEMDINECHSDPCQNDATCLDKIGGFTCLCMPGFKGVHCELEINECQSNPCVNNGQCVDKVNRFQCLCPPGFTGPVCQ
B11: LMNA 389-646 R482W (UniProt P02545); sequence looked up; chain LSPSPTSQRSRGRASSHSSQTQGGGSVTKKRKLESTESRSSFSQHARTSGRVAVEEVDEEGKFVRLRNKSNEDQSMGNWQIKRQNGDDPLLTYWFPPKFTLKAGQVVTIWAAGAGATHSPPTDLVWKAQNTWGCGNSLRTALINSTGEEVAMRKLVRSVTVVEDDEDEDGDDLLHHHHGSHCSSSGDPAEYNLRSRTVLCGTCGQPADKASASGSGAQVGGPISSGSSASSVTVTRSYRSVGGSGGGSFGDNLVTRSY
B12: CCDC32 V95S/M100S/L101S/L104S (Mus musculus, UniProt Q8BS39); chain MKMFESLDSSATKSGRDLWAEICSCLPSPAQEDVSDNAFSDSFMDSHPAGESHTAAADSAVQPAGKPWAPLHDSEVYLASLEKKLRRIKGLNEESTSKDSSRTSAQAKKECWDRFLQEKLASEFFVDGLDSDERTLEHFKRWLQPDKVAISTEEVQFLIPPESQAEKPEAGDKPAAAEQ
B13: ATP synthase subunit gamma, human; sequence looked up; chain ATLKDITRRLKSIKNIQKITKSMKMVAAAKYARAERELKPARIYGLGSLALYEKADIKGPEDKKKHLLIGVSSDRGLCGAIHSSIAKQMKSEVATLTAAGKEVMLVGIGDKIRGILYRTHSDQFLVAFKEVGRKPPTFGDASVIALELLNSGYEFDEGSIIFNKFRSVISYKTEEKPIFSLNTVASADSMSIYDDIDADVLQNYQEYNLANIIYYSLKESTTSEQSARMTAMDNASKNASEMIDKLTLTFNRTRQAVITKELIEIISGAAALD
B14: NUP60 200-318 (Saccharomyces cerevisiae, UniProt P39705); sequence looked up; chain SMNTTLGSIGSRKYSFNYSSLPSPYKTTVYRYSAAKKIPDTYTANTSAQSIASAKSVRSGVSKSAPSKKISNTAAALVSLLDENDSKKNNAASELANPYSSYVSQIRKHKRVSPNAAPR
B15: TFC7 1-435 (Saccharomyces cerevisiae, UniProt Q12415); chain MVVNTIYIARHGYRSNWLPEGPYPDPLTGIDSDVPLAEHGVQQAKELAHYLLSLDNQPEAAFASPFYRCLETVQPIAKLLEIPVYLERGIGEWYRPDRKPVIPVPAGYEILSKFFPGVISQEWDSTLTPNEKGETEQEMYMRFKKFWPLFIERVEKEYPNVECILLVTHAASKIALGMSLLGYDNPRMSLNENGDKIRSGSCSLDKYEILKKSYDTIDETDDQTSFTYIPFSDRKWVLTMNGNTEFLSSGEEMNWNFDCVAEAGSDADIKKRQMTKKTSSPIPEADDQTEVETVYISVDIPSGNYKERTEIAKSAILQYSGLETDAPLFRIGNRLYEGSWERLVGTELAFPNAAHVHKKTAGLLSPTEENETTNAGQSKGSSTANDPNIQIQEEDVGLPDSTNTSRDHTGDKEEVQSEKIYRIKERIVLSNVRPM
Chain of UniProt Q02574 (whole entry, looked up): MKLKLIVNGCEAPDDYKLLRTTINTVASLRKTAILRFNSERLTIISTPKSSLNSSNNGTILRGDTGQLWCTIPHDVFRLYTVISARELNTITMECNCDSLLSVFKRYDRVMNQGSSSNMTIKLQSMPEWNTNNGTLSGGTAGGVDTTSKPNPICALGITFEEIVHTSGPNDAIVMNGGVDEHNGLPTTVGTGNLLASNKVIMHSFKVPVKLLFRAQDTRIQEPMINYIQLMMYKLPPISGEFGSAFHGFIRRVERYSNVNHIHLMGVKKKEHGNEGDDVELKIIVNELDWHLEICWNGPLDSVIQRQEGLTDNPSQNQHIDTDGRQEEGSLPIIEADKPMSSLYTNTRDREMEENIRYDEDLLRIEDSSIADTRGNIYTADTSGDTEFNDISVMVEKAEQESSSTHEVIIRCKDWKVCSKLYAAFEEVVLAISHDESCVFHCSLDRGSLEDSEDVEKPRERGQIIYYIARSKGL
Chain of UniProt P36956 (whole entry, looked up): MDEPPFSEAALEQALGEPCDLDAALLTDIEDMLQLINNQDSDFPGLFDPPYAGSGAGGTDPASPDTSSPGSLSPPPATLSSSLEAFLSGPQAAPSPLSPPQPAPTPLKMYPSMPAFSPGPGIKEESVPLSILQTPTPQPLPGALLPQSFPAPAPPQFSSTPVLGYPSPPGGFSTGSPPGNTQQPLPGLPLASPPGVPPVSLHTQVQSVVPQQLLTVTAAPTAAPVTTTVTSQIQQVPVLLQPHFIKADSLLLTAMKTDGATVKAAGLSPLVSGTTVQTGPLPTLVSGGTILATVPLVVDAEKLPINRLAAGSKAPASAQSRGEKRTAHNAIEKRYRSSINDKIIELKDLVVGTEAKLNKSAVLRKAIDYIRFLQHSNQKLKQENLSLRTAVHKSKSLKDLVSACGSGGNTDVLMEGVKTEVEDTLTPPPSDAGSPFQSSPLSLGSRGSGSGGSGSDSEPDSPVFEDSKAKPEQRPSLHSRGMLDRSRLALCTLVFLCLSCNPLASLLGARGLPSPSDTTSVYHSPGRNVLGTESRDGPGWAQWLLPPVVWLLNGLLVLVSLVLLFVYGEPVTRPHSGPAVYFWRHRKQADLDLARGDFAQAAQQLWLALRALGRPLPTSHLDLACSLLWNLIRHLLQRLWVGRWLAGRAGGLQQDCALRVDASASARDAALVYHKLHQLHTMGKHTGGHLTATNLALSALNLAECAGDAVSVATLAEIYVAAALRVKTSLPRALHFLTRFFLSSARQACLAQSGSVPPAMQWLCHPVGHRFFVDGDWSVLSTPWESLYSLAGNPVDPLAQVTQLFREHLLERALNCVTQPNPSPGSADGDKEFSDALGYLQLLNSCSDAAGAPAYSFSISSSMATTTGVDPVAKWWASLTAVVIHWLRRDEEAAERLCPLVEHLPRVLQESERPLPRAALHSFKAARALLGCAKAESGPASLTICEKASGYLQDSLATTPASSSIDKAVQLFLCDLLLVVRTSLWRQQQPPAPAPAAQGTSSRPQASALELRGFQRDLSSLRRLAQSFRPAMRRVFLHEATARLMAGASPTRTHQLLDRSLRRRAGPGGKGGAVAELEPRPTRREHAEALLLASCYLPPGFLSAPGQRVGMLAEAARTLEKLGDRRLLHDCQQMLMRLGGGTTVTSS
Chain of UniProt P08069 (whole entry, looked up): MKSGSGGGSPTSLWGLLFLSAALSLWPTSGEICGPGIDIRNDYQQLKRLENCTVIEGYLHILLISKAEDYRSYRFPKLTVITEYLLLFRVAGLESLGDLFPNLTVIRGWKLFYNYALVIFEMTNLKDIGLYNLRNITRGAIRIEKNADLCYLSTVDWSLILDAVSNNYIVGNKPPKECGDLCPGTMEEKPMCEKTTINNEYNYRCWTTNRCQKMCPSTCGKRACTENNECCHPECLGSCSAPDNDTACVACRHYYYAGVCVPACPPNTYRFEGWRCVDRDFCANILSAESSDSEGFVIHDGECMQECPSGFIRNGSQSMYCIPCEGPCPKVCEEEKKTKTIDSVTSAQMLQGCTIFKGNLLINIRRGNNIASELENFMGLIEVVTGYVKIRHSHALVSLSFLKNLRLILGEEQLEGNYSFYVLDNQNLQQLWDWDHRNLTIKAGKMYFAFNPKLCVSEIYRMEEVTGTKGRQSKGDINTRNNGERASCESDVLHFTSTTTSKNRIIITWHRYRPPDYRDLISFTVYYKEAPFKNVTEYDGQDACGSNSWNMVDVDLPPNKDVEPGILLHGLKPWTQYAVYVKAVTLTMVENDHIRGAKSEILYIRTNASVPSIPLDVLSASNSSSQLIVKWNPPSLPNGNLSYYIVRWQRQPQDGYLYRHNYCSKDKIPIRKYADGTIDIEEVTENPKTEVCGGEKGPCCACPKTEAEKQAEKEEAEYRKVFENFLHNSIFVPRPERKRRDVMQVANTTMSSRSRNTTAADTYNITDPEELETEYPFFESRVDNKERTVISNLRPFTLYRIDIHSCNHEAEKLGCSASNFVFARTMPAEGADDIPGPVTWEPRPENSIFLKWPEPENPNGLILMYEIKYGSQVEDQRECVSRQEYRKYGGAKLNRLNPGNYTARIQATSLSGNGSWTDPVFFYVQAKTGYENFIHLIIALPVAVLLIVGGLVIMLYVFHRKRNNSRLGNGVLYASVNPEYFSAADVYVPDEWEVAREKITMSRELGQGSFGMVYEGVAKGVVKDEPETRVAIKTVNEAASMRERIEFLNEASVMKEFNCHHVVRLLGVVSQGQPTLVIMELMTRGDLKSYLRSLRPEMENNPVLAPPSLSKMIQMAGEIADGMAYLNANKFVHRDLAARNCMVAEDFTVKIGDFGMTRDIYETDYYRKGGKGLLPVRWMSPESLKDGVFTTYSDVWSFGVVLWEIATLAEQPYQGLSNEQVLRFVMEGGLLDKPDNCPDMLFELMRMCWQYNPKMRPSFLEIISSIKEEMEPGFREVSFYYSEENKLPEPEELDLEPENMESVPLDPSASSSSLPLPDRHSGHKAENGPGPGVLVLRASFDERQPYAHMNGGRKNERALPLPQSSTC
Chain of UniProt Q99613 (whole entry, looked up): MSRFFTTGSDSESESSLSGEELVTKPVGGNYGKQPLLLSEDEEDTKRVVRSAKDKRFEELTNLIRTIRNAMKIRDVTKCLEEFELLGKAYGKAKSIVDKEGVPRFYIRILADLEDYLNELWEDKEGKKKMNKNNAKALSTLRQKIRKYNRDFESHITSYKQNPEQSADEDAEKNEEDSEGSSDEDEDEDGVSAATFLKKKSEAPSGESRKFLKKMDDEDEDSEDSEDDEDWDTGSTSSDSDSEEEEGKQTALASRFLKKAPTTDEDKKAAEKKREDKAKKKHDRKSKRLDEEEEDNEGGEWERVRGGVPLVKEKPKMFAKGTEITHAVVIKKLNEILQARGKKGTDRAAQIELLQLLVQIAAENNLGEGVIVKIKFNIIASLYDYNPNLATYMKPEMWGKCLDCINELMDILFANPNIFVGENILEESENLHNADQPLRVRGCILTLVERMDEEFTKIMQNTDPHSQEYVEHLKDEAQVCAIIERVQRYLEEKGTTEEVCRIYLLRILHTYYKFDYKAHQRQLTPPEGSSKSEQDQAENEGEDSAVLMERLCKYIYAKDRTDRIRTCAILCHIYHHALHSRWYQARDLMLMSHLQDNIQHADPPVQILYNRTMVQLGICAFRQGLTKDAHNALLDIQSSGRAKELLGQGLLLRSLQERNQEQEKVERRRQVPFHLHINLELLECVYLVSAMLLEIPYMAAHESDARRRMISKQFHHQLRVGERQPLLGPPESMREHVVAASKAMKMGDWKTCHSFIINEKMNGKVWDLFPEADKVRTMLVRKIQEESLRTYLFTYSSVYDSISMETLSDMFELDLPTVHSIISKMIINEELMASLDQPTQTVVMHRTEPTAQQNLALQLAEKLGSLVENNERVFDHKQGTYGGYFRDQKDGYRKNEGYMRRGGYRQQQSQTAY
Chain of UniProt O31041 (whole entry, looked up): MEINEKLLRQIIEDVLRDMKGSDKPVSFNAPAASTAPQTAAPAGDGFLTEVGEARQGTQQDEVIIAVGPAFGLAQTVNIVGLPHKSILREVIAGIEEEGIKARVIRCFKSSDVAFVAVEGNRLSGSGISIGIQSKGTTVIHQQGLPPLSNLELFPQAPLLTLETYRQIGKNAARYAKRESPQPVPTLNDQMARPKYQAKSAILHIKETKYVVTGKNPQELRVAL
Chain of UniProt Q8IXI2 (whole entry, looked up): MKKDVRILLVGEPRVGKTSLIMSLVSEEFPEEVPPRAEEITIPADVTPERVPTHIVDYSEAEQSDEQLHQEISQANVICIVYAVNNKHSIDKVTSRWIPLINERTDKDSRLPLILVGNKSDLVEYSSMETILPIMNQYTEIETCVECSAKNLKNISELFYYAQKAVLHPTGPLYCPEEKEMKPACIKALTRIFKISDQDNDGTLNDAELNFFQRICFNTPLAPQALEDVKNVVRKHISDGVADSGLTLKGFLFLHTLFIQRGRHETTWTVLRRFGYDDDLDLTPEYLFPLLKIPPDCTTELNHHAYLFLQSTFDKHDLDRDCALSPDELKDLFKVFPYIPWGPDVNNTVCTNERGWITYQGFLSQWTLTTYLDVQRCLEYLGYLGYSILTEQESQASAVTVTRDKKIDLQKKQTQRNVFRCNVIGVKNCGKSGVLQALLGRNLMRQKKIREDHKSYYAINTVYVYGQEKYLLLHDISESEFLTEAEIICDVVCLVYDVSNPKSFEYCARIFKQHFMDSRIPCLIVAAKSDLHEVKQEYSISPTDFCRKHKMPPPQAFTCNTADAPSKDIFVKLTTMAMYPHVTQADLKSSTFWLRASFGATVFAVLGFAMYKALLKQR

B1 (PduA 2-94)
binding (PduD (Salmonella enterica, UniProt O31041); cross-linking): binds

B2 (ARHGEF12 32-190)
binding (IGF1R 899-1367 (Homo sapiens, UniProt P08069); pull-down): binds

APPBP2 fragment (Homo sapiens) (sequence not shown)
binding (ELOB fragment (Homo sapiens); cryo-EM): binds

B3 (PSMD10 1-226 I219D)
binding (Mdm2 (Mus musculus, UniProt P23804); pull-down): binds

QELFGPGLFGGF (dnaJ2 98-109 (Thermus thermophilus, UniProt Q56237); sequence looked up)
binding (dnaK 388-500 (Thermus thermophilus, UniProt Q56235); NMR; peptide): binds

B4 (SPOP 28-359)
binding (AR 1-559, rhodamine label (UniProt P10275); fluorescence polarization): binds

DSVGLAVILHTDSR (PRKN 115-128 (Homo sapiens, UniProt O60260); sequence looked up)
binding (RHOT1 181-579 (Homo sapiens, UniProt Q8IXI2); competition with peptide, cross-linking; peptide): binds

B5 (GPATCH4)
binding (DDX21 (Homo sapiens, UniProt Q9NR30); pull-down): binds

MEC3 (Saccharomyces cerevisiae, UniProt Q02574)
binding (DDC1 1-612 (Saccharomyces cerevisiae, UniProt Q08949); cryo-EM): binds

KESALRKQDLLLEFDPLLR (TACC3 to 568 550-568 S558D/Y560L/K562E (Homo sapiens, UniProt Q9Y6A5); sequence looked up)
binding (CLTC 358-574 (Homo sapiens, UniProt Q00610); peptide array; peptide): binds

B6
binding (GIN4 (Saccharomyces cerevisiae, UniProt Q12263); pull-down): binds

B7 (EIF3J/GST 103-258)
binding (EIF3C 302-913 (Homo sapiens, UniProt Q99613); EMSA): binds

colistin
MIC (Enterobacter cloacae; clinical isolate RKI 733/14): ≤ 0.5 µg/mL

B8 (dnaC 1-245)
binding (dnaB 1-471 T86A (Escherichia coli, UniProt P0ACB0); pull-down): binds

B9 (PAN1 543-850)
binding (PAN1 231-1480 (Saccharomyces cerevisiae, UniProt P32521); pull-down): binds

B10 (NOTCH2 221-530)
binding (DLL4 27-400 (Homo sapiens, UniProt Q9NR61); SPR): binds

B11 (LMNA 389-646 R482W)
binding (SREBF1 227-487 (Homo sapiens, UniProt P36956); pull-down): binds

B12 (CCDC32 V95S/M100S/L101S/L104S)
binding (AP-2 core (Mus musculus); pull-down): binds

SSRP1 (human)
log2 fold change (PP6C (human); co-immunoprecipitation, IP-MS; CYB5R4 knockout cells; concentration not given; reference: CYB5R4 knockout over parental): -0.74

TVAGQFEDADVDH (CLNS1A residues 225-237; N-terminal acetyl)
binding (PRMT5/WDR77 fragment (Homo sapiens); crystal structure; peptide): binds

B13
log2 fold change (PP6C (human); co-immunoprecipitation, IP-MS; CYB5R4 knockout cells; concentration not given; reference: CYB5R4 knockout over parental): -0.12

B14 (NUP60 200-318)
binding (SEH1 (Saccharomyces cerevisiae, UniProt P53011); cross-linking): binds

B15 (TFC7 1-435)
binding (TFC1 1-649 (Saccharomyces cerevisiae, UniProt P32367); cryo-EM): binds

A few entries again:
MEC3 (Saccharomyces cerevisiae, UniProt Q02574)
binding (DDC1 1-612 (Saccharomyces cerevisiae, UniProt Q08949); cryo-EM): binds

KESALRKQDLLLEFDPLLR (TACC3 to 568 550-568 S558D/Y560L/K562E (Homo sapiens, UniProt Q9Y6A5); sequence looked up)
binding (CLTC 358-574 (Homo sapiens, UniProt Q00610); peptide array; peptide): binds
